Experimental data of several laboratories.
Each numbered part is a random draw from the data of one study; scales do not carry over between parts.

Study 1
Target: Histone acetyltransferase KAT6A, both winged helices, GST fusion (KAT6A, Homo sapiens, UniProt Q92794, residues 1-181)
Method: protein binding microarray
Molecule type: double-stranded DNA, one strand shown
Matrix: in vitro
Concentration: not given
Notes: 8-mer, flanks averaged, mean of 2 arrays, mostly near background
Baseline: not given
Direction: higher = stronger binding
Residues (chain): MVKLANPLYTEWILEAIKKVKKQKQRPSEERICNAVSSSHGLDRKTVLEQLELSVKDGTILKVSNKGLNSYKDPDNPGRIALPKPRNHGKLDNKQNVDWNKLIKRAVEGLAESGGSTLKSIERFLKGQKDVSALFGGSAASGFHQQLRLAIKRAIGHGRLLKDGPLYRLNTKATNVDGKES
Oligonucleotide | E-score
GCTGGCCC | -0.0818
GAACGCCC | 0.0456
CAGGTGGA | -0.198
GCCTCGAC | 0.0635
AGCCAATA | -0.159
CAATTGAG | -0.013
GACGCTGA | 0.166

Study 2
Target: Phosphate system positive regulatory protein PHO4, full length, GST-tagged (PHO4, Saccharomyces cerevisiae, UniProt P07270, residues 1-312)
Method: competition protein-binding microarray
Molecule type: double-stranded DNA, one strand shown
Matrix: in vitro
Concentration: 2 µM
Notes: whole 60-bp probe, lowest competitor level
Together with: Cbf1 competitor, 0.05 µM
Direction: higher = stronger binding
Target sequence (chain): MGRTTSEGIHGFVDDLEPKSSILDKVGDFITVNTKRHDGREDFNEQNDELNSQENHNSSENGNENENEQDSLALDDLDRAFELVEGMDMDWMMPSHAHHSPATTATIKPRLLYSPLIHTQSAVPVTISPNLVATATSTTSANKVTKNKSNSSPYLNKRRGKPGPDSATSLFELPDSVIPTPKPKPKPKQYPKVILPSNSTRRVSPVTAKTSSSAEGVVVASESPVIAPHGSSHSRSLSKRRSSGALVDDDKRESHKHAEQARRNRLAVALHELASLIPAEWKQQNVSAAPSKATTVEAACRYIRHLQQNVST
Oligonucleotide | fluorescence intensity
GCGGGTATTCCCCCTGGTGTGATGAACATTGTATCCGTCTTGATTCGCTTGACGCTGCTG | 3580 a.u.
AGAGTTTGCAGAGTCCATGTGTCAAGAATTAGAACTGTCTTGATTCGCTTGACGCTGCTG | 7710 a.u.
CTTCTGTAAATTTGCGTTGTGGGTGGACGCGCCCCGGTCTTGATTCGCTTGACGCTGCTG | 4590 a.u.
CGGGGTTAAGTTTGCTCGGTGGGTGGCTTGCAGCAGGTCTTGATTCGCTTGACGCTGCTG | 4810 a.u.
TTGGTGTGGGTAAAACACGTGAATAAGAAACTGTATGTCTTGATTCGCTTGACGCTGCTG | 13200 a.u.
AAAGCGGTAATTTGCAATGTGGGTGCAGATATCTATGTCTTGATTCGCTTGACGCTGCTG | 6170 a.u.

Study 3
Target: RNA binding protein fox-1 homolog 2, RRM domain, GST-SBP tag (RBFOX2, Homo sapiens, UniProt O43251-10, residues 100-194)
Method: RNA Bind-n-Seq
Molecule type: RNA
Matrix: in vitro
Concentration: 365 nM
Notes: natural RNA segment, single round, ends assumed
Baseline: no-protein control
Direction: higher = stronger binding
Construct (chain): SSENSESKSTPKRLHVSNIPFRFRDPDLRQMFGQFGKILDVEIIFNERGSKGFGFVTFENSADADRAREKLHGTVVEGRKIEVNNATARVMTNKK
Oligonucleotide | RBNS enrichment (R)
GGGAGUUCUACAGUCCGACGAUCUUUGAGCAUAAUUCACUUUAAAGUCAUUUUUCCAGCAAUGUUUAAAUUACUUUCUCAUUCUUUUAGUGUAUUCAACAUUGUCUGCCUCUUCCUGCAGUUGAUGUAAUUGCUGGAAUUCUCGGGUGCCAA | 0.673
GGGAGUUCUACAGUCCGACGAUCUCUAUAAAUGUGUAAUGUGAUGAAGAAAGAGAUCUUUCUUUUUUAAUGAAAACAUUAAUGUGUUAAUACCCUGUAUGGAUAAUGCUUGACAUUUAGUGGUUUCCAAAAUAUGGAAUUCUCGGGUGCCAA | 0.339
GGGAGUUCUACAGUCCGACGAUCUUAAGUAUUUAAAUUAUGAAAGAAUAAUGCAGACUUUUUAUUGUUUCUUAACUGACUAGAAAGAGCCACCAGCAUUACUCUGUGCCUUUUGGACAUCAGUUUGUGUGUUCUGGAAUUCUCGGGUGCCAA | 0.44
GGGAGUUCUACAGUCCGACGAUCUGCAGUCAGUAAGCAUGUUUGAAAGGACCAUAAAAACCAGAGAAAUGCUGAUGGGAACUUGGAAGUUCAGAAACCAAGGGGAAAUGUCCUGAGAUAACAUUUGCAUUGUCUGGAAUUCUCGGGUGCCAA | 7.55
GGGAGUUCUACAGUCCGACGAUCCAACCCCCUCGCCCCAGCAGCAGCUCUGCCAGCCAGCUGAUCCCUGUGGGAUCAGGGGACUGGAGUCACUGUGUCUACACCACCAGCUUCUAGAGGAAUUUGGUCUAUGCUGGAAUUCUCGGGUGCCAA | 0.244
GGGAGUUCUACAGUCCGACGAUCUGUCACGCGGCAGCUUCAGGGAGCUCGCAUUCUCUUGUGUUCGUGUUGCCCUCGUGCCCAUCAAGUGCAGUCGGGACCUCCCAGGACAAGCACGAGGCCUCAGGUCGGCCUGGAAUUCUCGGGUGCCAA | 1.69
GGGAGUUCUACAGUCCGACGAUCCUUUCAAAGUCCAGCCUAGUCUGGACUGCUUCCCCAUCAGCCUUCCCAAGGUUCUAUCCUGUUCCGAGCAACUUUUCUAAUUAUAAACAUCACAGAACAUCCUGGAUCAAUGGAAUUCUCGGGUGCCAA | 0.507

Other studies, line by line
Molecule | target | assay | system | conditions | scale | endpoint | value
PhoQ, residues 284 288 289 292 302 303 QWGLFV | PhoP, residues 12 14 15 18 19 LHHVQ (Escherichia coli, UniProt P23836) | Sort-seq, measured: YFP reporter | E. coli | PhoQ-PhoP variant library, together with: 10 µM Mg2+ | baseline: high Mg2+ state, higher = stronger signaling | fold induction | 12.9

A few entries again (other studies, line by line):
Molecule | target | assay | system | conditions | scale | endpoint | value
PhoQ, residues 284 288 289 292 302 303 QWGLFV | PhoP, residues 12 14 15 18 19 LHHVQ (Escherichia coli, UniProt P23836) | Sort-seq, measured: YFP reporter | E. coli | PhoQ-PhoP variant library, together with: 10 µM Mg2+ | baseline: high Mg2+ state, higher = stronger signaling | fold induction | 12.9
